Experimental data of several laboratories.
Each numbered part is a random draw from the data of one study; scales do not carry over between parts. Values joined by “and” are separate records of one study, mostly repeats; a detail may differ.

Series 1
Target: Diamine acetyltransferase 1 (Homo sapiens, UniProt P21673)
Action: inhibitor
Concentration: 10 µM
Reference: control
Quantity: remaining activity
Residues (P21673 1-171): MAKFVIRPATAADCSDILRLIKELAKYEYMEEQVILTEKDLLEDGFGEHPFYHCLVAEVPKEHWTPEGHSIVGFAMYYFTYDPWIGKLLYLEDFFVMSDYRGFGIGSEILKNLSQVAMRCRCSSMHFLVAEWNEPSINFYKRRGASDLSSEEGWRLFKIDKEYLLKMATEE
C=C(CC[C@@H](C(=O)O)[C@H]1[C@H](O)C[C@@]2(C)C3=CC[C@@H](C(=C)C)[C@](C)(CCC(=O)O)C3=CC[C@]12C)C(C)C: 117%
COC(=O)/C=C/c1ccc(O)c(O)c1: 103%
CC(C)=CCC/C(C)=C/CC/C(C)=C/CC/C=C(\C)CC/C=C(\C)CCC=C(C)C: 101%
C=C(C)[C@@H]1CC[C@]2(C(=O)O)CC[C@]3(C)[C@H](CC[C@@H]4[C@@]5(C)CCC(=O)C(C)(C)[C@@H]5CC[C@]43C)[C@@H]12: 90.9%
COc1c(/C=C/C(=O)c2ccc(O)cc2)ccc(O)c1CC=C(C)C: 91.5%
COc1ccc([C@H]2OC[C@H]3[C@@H]2CO[C@@H]3c2ccc(OC)c(OC)c2)cc1OC: 104%
CC1(C)O[C@H]2CC(=O)OC[C@]23[C@H]2CC[C@@]4(C)[C@H](c5ccoc5)OC(=O)[C@H]5O[C@]54[C@]2(C)C(=O)C[C@@H]13: 78.9%
CC(C)(O)[C@H]1CC[C@@](C)([C@H]2[C@@H](O)C[C@@]3(C)[C@@H]4C[C@H](O)[C@H]5C(C)(C)[C@@H](O)CC[C@@]56C[C@@]46CC[C@]23C)O1: 91.9%
CCCCCCCCCCCCO: 99.4%

Series 2
Target: 5-hydroxytryptamine receptor 6 (HTR6, Homo sapiens, UniProt P50406)
Sequence of UniProt P50406 (whole entry, looked up): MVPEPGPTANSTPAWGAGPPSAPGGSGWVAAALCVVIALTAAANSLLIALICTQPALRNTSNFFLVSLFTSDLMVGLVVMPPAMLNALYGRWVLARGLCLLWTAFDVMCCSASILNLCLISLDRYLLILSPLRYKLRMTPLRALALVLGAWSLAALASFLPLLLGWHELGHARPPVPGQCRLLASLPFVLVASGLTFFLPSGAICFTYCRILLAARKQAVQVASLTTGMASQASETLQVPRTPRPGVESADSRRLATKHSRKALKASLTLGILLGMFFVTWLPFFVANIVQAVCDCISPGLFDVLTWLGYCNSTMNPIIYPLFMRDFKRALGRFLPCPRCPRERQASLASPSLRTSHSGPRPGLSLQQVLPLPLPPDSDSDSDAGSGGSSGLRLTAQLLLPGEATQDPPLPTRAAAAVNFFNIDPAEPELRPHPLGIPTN
Read-out: binding
Technique: radioligand binding
Concentration: 10 µM
Quantity: inhibition
CCOC(=O)c1cc2cc(-c3cc(C(=O)NCc4ccc(C(=O)O)cc4)nn3C)ccc2[nH]1: 4.01%
Cc1c(NC(=O)c2cc(C(N)=O)nc3cc(F)ccc23)c(C(F)(F)F)nn1Cc1ccc(C(C)(C)C)cc1: -0.431%
CNC(=O)Nc1ccc2c(c1)[C@]1(CC2)OC(=O)N(CC(=O)N(Cc2ccc(F)cc2)[C@@H](C)C(F)(F)F)C1=O: 24.1%
CC1=C(C#N)C(c2ccc3c(c2)c(NC(=O)c2ccccc2C)nn3C)C(C#N)=C(C)N1: 2.21%
CC(=O)Nc1c(F)cc(C(=O)N[C@H]2CC[C@H](O)CC2)cc1O[C@@H](C)c1ccccc1: 11.4%
CN(C)C(=O)Cn1cc(-c2nc([C@@](C)(c3ccc(-c4cnc(N)nc4)cc3)C3CC3)no2)cn1: -10.1%
CC(C)CC(=O)N1CCc2nc(-c3ccc(Br)cc3)nc(N(C)Cc3ccccc3)c2C1: 0.81%
Cc1c(N2CCCC2)nc2ccc(Br)cc2c1C(=O)NC[C@H](CCC(=O)O)c1ccccc1Cl: 6.59%
O=C(Nc1cnc(Oc2ccc(F)cc2)nc1)N1CCc2ncccc2[C@@H]1c1ccc(F)cc1: -3.59%
COc1cc(-c2cn(C3CCc4ccccc4N(CC(F)(F)F)C3=O)nn2)ccc1-n1ccc(C)n1 (stereo not shown): -1.39%
CCOCCn1cc(C(=O)Nc2ccc(-n3nc(-c4cccnc4)cc3C(F)(F)F)cn2)ccc1=O: 0.656%
C[C@@H]1CN(c2cc(-c3nn(C)c4ccc(OC5(C)CC5)cc34)ncn2)C[C@H](C)O1: -11.3%
Nc1c(C(=O)NCc2ccc(C(=O)NCCCC3CCCCC3)cc2)cnn1-c1ccccc1: 26.8%
O=C(Nc1cccnn1)N1CCC(=Cc2cccc(Oc3ccc(C(F)(F)F)cn3)c2)CC1: 40.6%
CC1=C(C#N)[C@@H](c2ccc3[nH]nc(C)c3c2)C(C#N)=C(c2ccc(Cl)cc2)N1: 55.7%
CC(=O)N1CCC(c2ccc(C(=O)NC(=N)N)cc2C(F)(F)F)CC1: 1.25%
COc1nc2ccc([C@@](O)(c3ccccc3)C3CCN(C(C)=O)CC3)cc2c(Cl)c1Cc1ccc(-n2cccn2)cc1: 8.8%
Cc1nc(N2CC[C@@H](O)C2)ncc1-c1cc(C(F)(F)F)cc2[nH]ncc12: -10.3%
CN1C(=O)[C@@H](N2CCc3cn(Cc4ccccc4)nc3C2=O)COc2ccccc21: -3.95%
O[C@]1(C(F)(F)F)CCCC[C@H]1Nc1ccc(F)cc1: -26.4%
O=C([C@H]1C[C@H](O)CN1c1ccc(Cl)cc1)N1CC2COCC(C1)N2Cc1ccc(Cl)cc1: 5.38%
Cc1nc(Cc2cccc(C(F)(F)F)c2)sc1-c1ccc(C(N)=O)nc1: 2.42%
COCCc1ccc(-c2c(C)nc3c(N4CCOCC4)ccnn23)cn1: 18.5%
CC(=O)c1c(NS(C)(=O)=O)c2cc(-c3ccc(Cl)cc3)c(-c3ccc(Cl)cc3Cl)nc2n(C)c1=O: -11.5%
CS(=O)(=O)NCC[C@H](NC(=O)c1cncc2c1cnn2-c1ccc(F)cc1)c1ccnc(S(C)(=O)=O)c1: -4.31%

Series 3
Medium: 1,9-decadiene/PBS
pH: 7.4
Quantity: logD
CC(C)C[C@@H]1NC(=O)[C@H](CC(C)C)NC(=O)[C@H](CC(C)C)NC(=O)[C@H](C(C)C)NC(=O)[C@H](C(C)C)NC(=O)[C@H](C)NC(=O)[C@H](C)NC1=O: -0.661
CC(C)C[C@@H]1NC(=O)[C@H](CC(C)C)NC(=O)[C@@H](C(C)C)NC(=O)[C@H](C(C)C)NC(=O)[C@H](C)NC(=O)[C@@H](CC(C)C)NC(=O)[C@H](C)NC1=O: -1.06
CC(C)C[C@@H]1NC(=O)[C@H](CC(C)C)NC(=O)[C@H](CC(C)C)NC(=O)[C@H](C(C)C)NC(=O)[C@H](C(C)C)NC(=O)[C@H](Cc2cscn2)NC(=O)[C@H](C)NC1=O: -0.149
CC(C)C[C@@H]1NC(=O)[C@H](C(C)C)NC(=O)[C@@H](CC(C)C)NC(=O)[C@@H](CC(C)C)NC(=O)[C@H](C)NC(=O)[C@H](CC(C)C)NC(=O)[C@@H](CC(C)C)NC1=O: 1.5
CC(C)C[C@@H]1NC(=O)[C@H](CCC(=O)N2CCCC2)NC(=O)[C@@H](C(C)C)NC(=O)[C@H](C(C)C)NC(=O)[C@H](CC(C)C)NC(=O)[C@@H](CC(C)C)NC(=O)[C@H](CC(C)C)NC1=O: 0.354
CC(C)C[C@@H]1NC(=O)[C@H](CC(C)C)NC(=O)[C@@H](CC(C)C)NC(=O)[C@H](C)NC(=O)[C@H](C(C)C)NC(=O)[C@H](C)NC(=O)[C@H](C)NC1=O: -1.67
CC(C)C[C@@H]1NC(=O)[C@H](CC(C)C)NC(=O)[C@H](CC(C)C)NC(=O)[C@H](CC(C)C)NC(=O)[C@@H](Cc2cscn2)NC(=O)[C@H](C)NC(=O)[C@H](CCC(=O)N2CCCC2)NC1=O: -1.71
CC(C)C[C@@H]1NC(=O)[C@H](C)NC(=O)[C@H](Cc2cscn2)NC(=O)[C@H](CC(C)C)NC(=O)[C@@H](CCC(=O)N2CCCC2)NC(=O)[C@H](CC(C)C)NC(=O)[C@@H](CC(C)C)NC1=O: -1.3
CC(C)C[C@@H]1NC(=O)[C@H](C(C)C)NC(=O)[C@H](Cc2cscn2)NC(=O)[C@@H](CC(C)C)NC(=O)[C@H](C(C)C)NC(=O)[C@H](CC(C)C)NC(=O)[C@@H](CC(C)C)NC1=O: 0.575
CC(C)C[C@@H]1NC(=O)[C@H](CC(C)C)NC(=O)[C@@H](CC(C)C)NC(=O)[C@H](CC(C)C)NC(=O)[C@@H](CCC(=O)N2CCCC2)NC(=O)[C@H](Cc2cscn2)NC(=O)[C@H](C)NC1=O: -1.44
CC(C)C[C@@H]1NC(=O)[C@H](CC(C)C)NC(=O)[C@@H](CC(C)C)NC(=O)[C@@H](CC(C)C)NC(=O)[C@H](C(C)C)NC(=O)[C@H](CC(C)C)NC(=O)[C@@H](CC(C)C)NC1=O: 2.98
CC(C)C[C@@H]1NC(=O)[C@H](CC(C)C)NC(=O)[C@H](CC(C)C)NC(=O)[C@H](C(C)C)NC(=O)[C@H](C)NC(=O)[C@H](Cc2cscn2)NC(=O)[C@H](CCC(=O)N2CCCC2)NC1=O: -1.88
CC(C)C[C@@H]1NC(=O)[C@H](Cc2cscn2)NC(=O)[C@H](CC(C)C)NC(=O)[C@H](C(C)C)NC(=O)[C@H](CC(C)C)NC(=O)[C@@H](CC(C)C)NC(=O)[C@H](CC(C)C)NC1=O: 1.14
CC(C)C[C@@H]1NC(=O)[C@H](Cc2cscn2)NC(=O)[C@@H](CC(C)C)NC(=O)[C@H](CC(C)C)NC(=O)[C@@H](CCC(=O)N2CCCC2)NC(=O)[C@H](CC(C)C)NC(=O)[C@@H](CC(C)C)NC1=O: 0.128

Series 4
Cell line: mouse MPNST tumor cells
Technique: high-content immunofluorescence imaging
Measured: nuclear SOX9
Concentration: 10 µM
Time: 12 h
Setting: mean of 2 replicates
Reference: DMSO control
Reading: higher = more nuclear SOX9
Quantity: nuclear SOX9 intensity
CCN(CC)CCOC(=O)C(c1ccccc1)C1CCCCC1 (stereo not shown): 162 % of DMSO
COc1ccc(-c2cnc3c(-c4cccc5ncccc45)cnn3c2)cc1: 176 % of DMSO
N=C(NCCCCCCNC(=N)NC(=N)Nc1ccc(Cl)cc1)NC(=N)Nc1ccc(Cl)cc1: 145 % of DMSO
CCOc1ccc(-n2c(C(C)N(Cc3cccnc3)C(=O)Cc3ccc(F)c(C(F)(F)F)c3)nc3ncccc3c2=O)cc1 (stereo not shown): 99.2 % of DMSO
OCCN1C[C@H](O)[C@@H](O)[C@H](O)[C@H]1CO: 91.3 % of DMSO and 96.8 % of DMSO and 105 % of DMSO
C[C@@H](O)[C@H]1C(=O)N2C(C(=O)O)=C(SCCNC=N)C[C@H]12: 87.9 % of DMSO
C[N+](C)(C)CCCCCNCC12CC3CC(CC(C3)C1)C2: 112 % of DMSO
CCOc1cc(C(=O)N2CCC(N3CCN(C)CC3)CC2)ccc1Nc1ncc2c(n1)N(S(C)(=O)=O)c1ccccc1C(=O)N2C: 124 % of DMSO
C#C[C@]1(O)CC[C@H]2[C@@H]3CCC4=CC(=O)CC[C@@H]4[C@H]3CC[C@@]21C: 89.8 % of DMSO
CC(=O)O[C@H]1C[C@@]2(C)[C@@H](C[C@@H](O)[C@H]3[C@@]4(C)CC[C@@H](O)[C@@H](C)[C@@H]4CC[C@@]32C)/C1=C(\CCC=C(C)C)C(=O)O: 98.3 % of DMSO
Nc1c(Br)cc(Br)cc1CN[C@H]1CC[C@H](O)CC1: 106 % of DMSO and 124 % of DMSO
CCN(CC)CCOCCOC(=O)C1(c2ccccc2)CCCC1: 130 % of DMSO
CC(C(=O)O)c1ccc(N2Cc3ccccc3C2=O)cc1 (stereo not shown): 94.9 % of DMSO

For quick reference, copied from above (series 2):
CN(C)C(=O)Cn1cc(-c2nc([C@@](C)(c3ccc(-c4cnc(N)nc4)cc3)C3CC3)no2)cn1: -10.1%
CC(=O)Nc1c(F)cc(C(=O)N[C@H]2CC[C@H](O)CC2)cc1O[C@@H](C)c1ccccc1: 11.4%
O[C@]1(C(F)(F)F)CCCC[C@H]1Nc1ccc(F)cc1: -26.4%
COCCc1ccc(-c2c(C)nc3c(N4CCOCC4)ccnn23)cn1: 18.5%
O=C(Nc1cnc(Oc2ccc(F)cc2)nc1)N1CCc2ncccc2[C@@H]1c1ccc(F)cc1: -3.59%
